Assay results collected from several papers.
Compare with care: the assays were run in different laboratories. ± gives the spread as reported.
Sequence of UniProt P49760 (whole entry, looked up): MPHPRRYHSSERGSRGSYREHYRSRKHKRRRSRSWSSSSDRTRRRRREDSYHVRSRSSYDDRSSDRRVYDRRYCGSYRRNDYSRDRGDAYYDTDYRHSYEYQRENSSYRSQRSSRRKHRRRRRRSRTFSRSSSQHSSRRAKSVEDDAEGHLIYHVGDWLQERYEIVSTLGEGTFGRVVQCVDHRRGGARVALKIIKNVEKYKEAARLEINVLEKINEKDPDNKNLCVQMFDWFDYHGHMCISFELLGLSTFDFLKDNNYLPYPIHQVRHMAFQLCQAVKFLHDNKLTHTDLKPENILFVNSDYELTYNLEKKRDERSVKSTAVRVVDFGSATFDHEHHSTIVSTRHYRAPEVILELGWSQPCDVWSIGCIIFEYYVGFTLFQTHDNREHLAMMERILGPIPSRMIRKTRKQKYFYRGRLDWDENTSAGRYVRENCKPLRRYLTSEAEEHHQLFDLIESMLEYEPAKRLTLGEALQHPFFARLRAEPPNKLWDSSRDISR
Sequence of UniProt Q15046 (whole entry, looked up): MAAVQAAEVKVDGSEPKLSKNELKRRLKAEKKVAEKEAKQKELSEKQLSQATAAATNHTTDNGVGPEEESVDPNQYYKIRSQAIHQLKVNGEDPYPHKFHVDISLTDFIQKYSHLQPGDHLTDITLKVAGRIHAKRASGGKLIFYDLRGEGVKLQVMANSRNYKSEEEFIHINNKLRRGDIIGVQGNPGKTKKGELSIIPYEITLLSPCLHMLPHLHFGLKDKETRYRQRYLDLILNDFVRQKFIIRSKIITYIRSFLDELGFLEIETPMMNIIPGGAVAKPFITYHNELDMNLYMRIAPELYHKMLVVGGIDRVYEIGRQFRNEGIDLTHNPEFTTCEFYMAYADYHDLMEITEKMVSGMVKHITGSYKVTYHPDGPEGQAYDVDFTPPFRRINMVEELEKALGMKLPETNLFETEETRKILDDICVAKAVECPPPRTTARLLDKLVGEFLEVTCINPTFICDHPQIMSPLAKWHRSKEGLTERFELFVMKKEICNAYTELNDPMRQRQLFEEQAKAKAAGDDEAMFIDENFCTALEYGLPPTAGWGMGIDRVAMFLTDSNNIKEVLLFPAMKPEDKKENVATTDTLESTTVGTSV
Sequence of UniProt P50416 (whole entry, looked up): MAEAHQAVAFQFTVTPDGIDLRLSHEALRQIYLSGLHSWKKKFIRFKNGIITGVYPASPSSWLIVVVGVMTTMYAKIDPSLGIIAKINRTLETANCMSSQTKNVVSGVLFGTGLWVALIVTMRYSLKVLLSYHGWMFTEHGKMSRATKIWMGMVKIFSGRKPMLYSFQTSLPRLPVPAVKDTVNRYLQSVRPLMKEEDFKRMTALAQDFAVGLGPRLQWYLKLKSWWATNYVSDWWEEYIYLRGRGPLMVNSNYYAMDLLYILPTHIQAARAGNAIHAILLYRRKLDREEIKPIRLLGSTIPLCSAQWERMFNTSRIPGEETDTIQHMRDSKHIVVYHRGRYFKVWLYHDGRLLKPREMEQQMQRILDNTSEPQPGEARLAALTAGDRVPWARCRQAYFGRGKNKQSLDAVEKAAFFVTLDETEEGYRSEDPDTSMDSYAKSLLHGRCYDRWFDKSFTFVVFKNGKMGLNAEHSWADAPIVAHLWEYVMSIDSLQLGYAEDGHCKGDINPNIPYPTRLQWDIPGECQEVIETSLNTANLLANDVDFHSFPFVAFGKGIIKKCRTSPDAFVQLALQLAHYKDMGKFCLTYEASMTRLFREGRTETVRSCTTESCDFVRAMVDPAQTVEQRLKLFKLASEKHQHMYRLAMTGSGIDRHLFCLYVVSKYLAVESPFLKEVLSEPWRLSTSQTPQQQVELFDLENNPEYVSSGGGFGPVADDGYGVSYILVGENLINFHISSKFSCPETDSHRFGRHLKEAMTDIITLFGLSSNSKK

Clc1ccc(Cl)c(-c2cc(Cl)ccc2Cl)c1 — organ weight (Sprague Dawley rat, spleen; intraperitoneal, 10 mg/kg): 0.5 g
C[C@@H](O)[C@@H](CO)NC(=O)[C@@H](CCCNC(=N)N)NC(=O)[C@@H]1CCCN1C(=O)[C@@H]1CSSC[C@H](NC(=O)[C@H](Cc2ccccc2)NC(=O)CN2CCN(CC(=O)O)CCN(CC(=O)O)CCN(CC(=O)O)CC2)C(=O)N[C@@H](Cc2ccc(O)cc2)C(=O)N[C@@H](Cc2ccccc2)C(=O)N[C@@H](CCC(N)=O)C(=O)N[C@@H](CC(N)=O)C(=O)N1 [gallium-68 labelled] — tissue uptake (Wistar rat, healthy, urinary bladder; intravenous, 8 MBq, 120 min): 0.06 %ID/g
C[C@H]1CN(c2n[nH]c3nc(N[C@H]4CC[C@H](NS(=O)(=O)CCC(F)(F)F)CC4)ncc23)CCO1 — remaining binding (Lysine--tRNA ligase (KARS1, Homo sapiens, UniProt Q15046); Kinobeads competition, item: KARS; 20 µM, unit not given; baseline: vehicle): 1.15
COc1cc2c(Oc3ccc4[nH]c(C)cc4c3F)ccnc2cc1OCC1(N)CC1 — Anorexia incidence (paediatric recurrent refractory sarcoma; 8 mg): 0%
NCCCC[C@@H]1NC(=O)[C@@H](Cc2c[nH]c3ccccc23)NC(=O)[C@H](c2ccccc2)NC(=O)[C@@H]2C[C@@H](OC(=O)NCCN)CN2C(=O)[C@H](Cc2ccccc2)NC(=O)[C@H](Cc2ccc(OCc3ccccc3)cc2)NC1=O — subjects with adverse event Flatulence (healthy human volunteers; 600 µg twice daily): 7%
COc1ccc(-c2c(-c3ccc(C#N)c(F)c3)nc(N3CCC(N)CC3)n(C)c2=O)cc1F — treatment-related adverse event incidence (item: Leukopenia; human patients; oral, dose not given, any grade, dose escalation, NG): 0%
Cc1cc2c(c(O)c1O)C(=O)c1c(O)cc(O)cc1C2=O — cell viability (HK-2 co-cultured with HepaRG; MTT; 133.33 µM, 48 h; baseline: untreated control): 113 ± 2.91%
C[C@@H](NC(=O)N1C(=O)[C@H](Cc2ccnc(N)c2)[C@H]1C(=O)O)C1CCCCC1 — urine ketone body positive (healthy Chinese adult volunteers; continuous intravenous infusion, dose not given, 5.0 days, CTCAE 5.0, all doses): 2.5%
CCN1CCN(Cc2ccc(Nc3ncc(F)c(-c4cc(F)c5nc6n(c5c4)[C@H](C)CCC6)n3)nc2)CC1 — Hematuria incidence, grade ≥3 (advanced solid tumour patients; dose not given, Phase Ia monotherapy): 0%
O=C(Nc1ccccc1)C1CCN(C(=O)Oc2cccnc2)CC1 — subjects with Rhinitis adverse event (adverse event reporting; healthy women; oral, 60 mg, 7 days): 0%
COc1cc(Nc2ncc(F)c(Nc3ccc4c(n3)NC(=O)C(C)(C)O4)n2)cc(OC)c1OC — IC50 (CPT1A (Homo sapiens, UniProt P50416); enzyme activity, inhibitor): > 10 µM
CO[C@H]1C[C@@H]2CC[C@@H](C)[C@@](O)(O2)C(=O)C(=O)N2CCCC[C@H]2C(=O)O[C@H]([C@H](C)C[C@@H]2CC[C@@H](OC(=O)NCCOCCOCCOCCOCCOCCOCCOCCOCCC(=O)N3CCc4cc(Cn5nc(-c6ccc7oc(N)nc7c6)c6c(N)ncnc65)ccc4C3)[C@H](OC)C2)C[C@@H](O)[C@H](C)/C=C(\C)[C@@H](O)[C@@H](OC)C(=O)[C@H](C)C[C@H](C)/C=C/C=C/C=C/1C — incidence of any TRAE (patients with advanced solid tumours; intravenous, 1.6 mg/3 mg weekly, any grade): 100%
CC(=O)OC[C@H]1O[C@@H](Oc2cc(O)cc3cc4oc(C)cc(=O)c4c(O)c23)[C@H](O)[C@@H](O)[C@@H]1O — cell viability (HepaRG co-cultured with HK-2; MTT; 16.67 µM, 48 h; baseline: untreated control): 123 ± 13.9%
CC[C@H](C)[C@@H]1NC(=O)[C@@H]2CCCN2C(=O)[C@H](CC(C)C)NC(=O)[C@H](CC(C)C)NC(=O)CNC(=O)[C@@H](NC(=O)[C@@H](NC(=O)[C@H](CC(=O)O)NC(=O)CNC(=O)[C@@H](NC(=O)[C@H](C)NC(=O)CNC(=O)[C@H](CCCCN)NC(=O)[C@H](CC(C)C)NC(=O)[C@H](CC(C)C)NC(=O)[C@H](CCCCN)NC(=O)CNC(=O)[C@@H](NC(=O)[C@@H](N)CC(C)C)C(C)C)C(C)C)C(C)C)CSSC[C@@H](C(=O)O)NC1=O — log2 fold change (RNA-seq, item: Fgl2; mouse, traumatic brain injury model, frontal cortex and hippocampus; dose not given; baseline: TBI alone): -1.46
[Cl][212Pb][Cl] — tissue uptake (athymic mice, C4-2 xenograft, large intestine; intravenous, 2 h, 212Pb-labelled): 2.05 ± 0.3 %ID/g
COc1ncccc1-c1cnn2ccc(N3CCN(C(=O)OC(C)C)CC3)nc12 — free concentration (rat rotarod, plasma; 60 mg/kg, 180 min): 75 nM
O=C(O)Cc1ccccc1 — CSF concentration (human CSF; concentration not given, mean): not detected
COc1ccc2nc3cc(Cl)ccc3c(Nc3cc(CN4CCCC4)c(O)c(CN4CCCC4)c3)c2n1 — plateletcrit (mouse, blood; intraperitoneal, 14 mg/kg): 0.06%
COc1ccc(F)cc1C(=O)NCc1ccc(-c2nn([C@@H](C)C(F)(F)F)c(N)c2C(N)=O)cc1 — AUCtau (human, plasma; oral, 200 mg once daily, with: intravenous midazolam): 116 µg·h/mL
COc1ccc(N2C(=O)N(c3c(C)cccc3Cl)Cc3cnc(Nc4ccc(C5CCN(C)CC5)cc4OC)nc32)nc1 — inhibition (CLK2 (Homo sapiens, UniProt P49760); kinase activity; 0.5 µM): 6%
CC(C)CC(=O)OC[C@H]1O[C@@](C#N)(c2ccc3c(N)ncnn23)[C@H](O)[C@@H]1O — fraction bound (human plasma; 9 µM): 0.802

A few entries again:
COc1cc2c(Oc3ccc4[nH]c(C)cc4c3F)ccnc2cc1OCC1(N)CC1 — Anorexia incidence (paediatric recurrent refractory sarcoma; 8 mg): 0%
NCCCC[C@@H]1NC(=O)[C@@H](Cc2c[nH]c3ccccc23)NC(=O)[C@H](c2ccccc2)NC(=O)[C@@H]2C[C@@H](OC(=O)NCCN)CN2C(=O)[C@H](Cc2ccccc2)NC(=O)[C@H](Cc2ccc(OCc3ccccc3)cc2)NC1=O — subjects with adverse event Flatulence (healthy human volunteers; 600 µg twice daily): 7%
COc1ccc(-c2c(-c3ccc(C#N)c(F)c3)nc(N3CCC(N)CC3)n(C)c2=O)cc1F — treatment-related adverse event incidence (item: Leukopenia; human patients; oral, dose not given, any grade, dose escalation, NG): 0%
